{"data": "Experimental data of several laboratories", "note": "Parts stem from different laboratories: compare values within a part only."}
{"data": "Block 1", "target": "Histone acetyltransferase KAT6A, winged helix 2, GST fusion (KAT6A, Homo sapiens, UniProt Q92794, residues 85-181)", "method": "protein binding microarray", "molecule type": "double-stranded DNA, one strand shown", "sample": "in vitro", "concentration": "not given", "setting": "8-mer, flanks averaged, mean of 2 arrays, mostly near background", "baseline": "not given", "reading": "higher = stronger binding", "Target sequence (chain)": "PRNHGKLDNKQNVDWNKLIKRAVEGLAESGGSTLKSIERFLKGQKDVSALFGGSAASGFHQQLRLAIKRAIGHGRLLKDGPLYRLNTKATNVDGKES"}
{"Sequence": "CGGTAAAG", "E-score": -0.127}
{"Sequence": "CACGTGGC", "E-score": -0.0846}
{"Sequence": "ACTGATAG", "E-score": -0.0902}
{"Sequence": "ATACTATC", "E-score": -0.0867}
{"Sequence": "AGAAGAAA", "E-score": 0.128}
{"Sequence": "CGGATTAA", "E-score": 0.0843}
{"Sequence": "AGAGCATG", "E-score": 0.0275}
{"Sequence": "CGGAGGAA", "E-score": 0.0827}
{"Sequence": "ATCCGTAC", "E-score": 0.0281}
{"Sequence": "AAAGACTC", "E-score": -0.237}
{"Sequence": "AAGCATCG", "E-score": 0.067}
{"Sequence": "GGTCACGA", "E-score": -0.0306}
{"Sequence": "CTTATCTC", "E-score": -0.0107}
{"Sequence": "CCTGCTCA", "E-score": 0.115}
{"Sequence": "AGATAAGC", "E-score": -0.104}
{"Sequence": "ACAGGGTG", "E-score": -0.104}
{"Sequence": "CGCTCGTA", "E-score": -0.0883}
{"Sequence": "ACACAGGC", "E-score": -0.0108}
{"Sequence": "CCAGGCGG", "E-score": 0.286}
{"Sequence": "CGCCCCCC", "E-score": -0.00089}
{"Sequence": "AATTAAAT", "E-score": -0.00222}
{"Sequence": "AACGTGCG", "E-score": -0.0672}
{"Sequence": "ACATTTCT", "E-score": 0.0891}
{"Sequence": "CTTCTAGC", "E-score": -0.0607}
{"data": "Block 2", "target": "RING finger protein unkempt homolog, zinc fingers 1-6, GST-SBP tag (UNK, Homo sapiens, UniProt Q9C0B0, residues 30-357)", "method": "RNA Bind-n-Seq", "molecule type": "RNA", "sample": "in vitro", "concentration": "not given", "setting": "RNA with constant flanks, human and mouse sites, ends assumed", "baseline": "input RNA pool", "reading": "higher = stronger binding", "sequence of UniProt Q9C0B0 (30-357, looked up)": "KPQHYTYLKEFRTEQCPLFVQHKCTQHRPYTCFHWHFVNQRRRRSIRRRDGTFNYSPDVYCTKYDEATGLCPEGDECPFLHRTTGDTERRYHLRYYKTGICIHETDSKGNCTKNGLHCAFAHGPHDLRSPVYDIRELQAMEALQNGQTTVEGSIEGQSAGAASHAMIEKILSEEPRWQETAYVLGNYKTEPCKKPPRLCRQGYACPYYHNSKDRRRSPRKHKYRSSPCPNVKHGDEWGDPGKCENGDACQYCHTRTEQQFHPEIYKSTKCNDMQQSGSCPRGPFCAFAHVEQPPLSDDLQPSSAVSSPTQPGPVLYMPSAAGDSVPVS"}
{"Sequence": "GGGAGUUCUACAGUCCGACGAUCCUAACUAACUACACCUUUGAAAAUGUGAGCUUUCAUGUUCUUCAUCAGCGUUUUCCCCUCUUUACCUUUCGAGUCUUGUCAGACUGGUUUGAUAACAAGACAGAUCUAUACAGAUGGAAACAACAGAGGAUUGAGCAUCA", "bound/input enrichment": "0.568 ratio"}
{"Sequence": "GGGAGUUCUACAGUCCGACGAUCGAUGGAGCCGUCUUCUUUAACAAGGAAAGAACCAGAAACAUUGUUAAGUUUGACUUGAGGACUAGAAUCAAGAGCGGCGAGGCUAUCAUCAACUAUGCCAACUACCACGAUACGUCACCCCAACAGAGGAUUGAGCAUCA", "bound/input enrichment": "0.108 ratio"}
{"Sequence": "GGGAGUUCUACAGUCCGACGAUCUGCCGUUUGAUUUUACACAUAAAAAGCAGUCGGGUGGUGCCGGCCAGUUUGGAAAAGUAAUAGGAGUGCUGGAGCCCUUGCCCCCAGAGGACUACACGAAGUUGGAGUUUUCUGAUGAGACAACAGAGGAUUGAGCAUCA", "bound/input enrichment": "0.406 ratio"}
{"Sequence": "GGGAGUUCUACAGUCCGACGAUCCUUGAAAGUUCGGGGGCAUUUUGUUGUGUUCUGUAGGAGAGAGGGGGAGGACCCUGUUCGGGUAGUUUGGCCGGACUGGUACUGGCCGUUGGAAAACCCGAAGUACAUUUCCGUGUGGAACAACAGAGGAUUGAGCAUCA", "bound/input enrichment": "0.186 ratio"}
{"Sequence": "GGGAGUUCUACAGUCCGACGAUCGACCAUAUCAAGAAACUCAGUACUGAUGUGGAUUUGAUUGUUGAAGUGCUAAGAUCUUUACCUUUAGUCCAAGUGGAUGAGAAGGGAGAGAAAGUAAGGCCAAAUCAGAACCGGUGCAUACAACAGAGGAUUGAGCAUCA", "bound/input enrichment": "0.19 ratio"}
{"Sequence": "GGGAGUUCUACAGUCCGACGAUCCCCAUUAUUGAAUCUUCCACAAACAUCAAGUUUGGCUGUUUUCAAUGGUACUACCCUGAAUUAGCAGCCCAAUUCAAAGAUGCAGGCCUCAGUAUCUUCAAUAACAUUUGGAGUCAUGUUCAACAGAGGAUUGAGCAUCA", "bound/input enrichment": "0.274 ratio"}
{"Sequence": "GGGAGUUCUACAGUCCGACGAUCGGGUUAUACCAGUAUAAGAACAUUUGUCAACAGGUGAACAUAAAAUCUCUGGAGGAUGUUGUUAGGGCAUAUUUGAAAAUGGCAGAGGAAAAAACUGAAGCUGCUAAAGAAGAAUCUCAGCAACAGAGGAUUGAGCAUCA", "bound/input enrichment": "0.177 ratio"}
{"Sequence": "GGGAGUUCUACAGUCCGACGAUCCUGGUGUGCCAGGAGAGUACUAAAUUUAAGAAUGUUUGGACAACUCAUUCCAAGUCACCUAUAGCCUAUGAGAGAGGAAGAAUAUAUUUUGACAAUUACCGGUGCUGUGUCAGCAGUGUUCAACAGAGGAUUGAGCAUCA", "bound/input enrichment": "1.86 ratio"}
{"data": "Block 3", "target": "Prothrombin, mature alpha-thrombin (F2, Homo sapiens, UniProt P00734)", "method": "aptamer microarray, sandwich", "molecule type": "DNA with 2'F-ANA", "sample": "in vitro", "concentration": "200 nM", "setting": "whole 15-mer aptamer, many near background", "with": "Cy3 exosite-II aptamer, 400 nM", "reading": "higher = stronger binding", "sequence": "GGTTGGTGTGGTTGG"}
{"Modification": "2'F-ANA at 2 3 4 6 7 8 11 12 14", "mean fluorescence intensity [a.u.]": 331}
{"Modification": "2'F-ANA at 1 3 6 7 10 13", "mean fluorescence intensity [a.u.]": 74.4}
{"Modification": "2'F-ANA at 3 4 5 9 12 13 15", "mean fluorescence intensity [a.u.]": 115}
{"Modification": "2'F-ANA at 2 6 7 9 13 14 15", "mean fluorescence intensity [a.u.]": 105}
{"Modification": "2'F-ANA at 2 5 6 7 8 9 11 15", "mean fluorescence intensity [a.u.]": 60.7}
{"Modification": "2'F-ANA at 1 4 6 7 9 10 12 13 14", "mean fluorescence intensity [a.u.]": 60}
{"Modification": "2'F-ANA at 1 3 10 12 14 15", "mean fluorescence intensity [a.u.]": 59.3}
{"Modification": "2'F-ANA at 1 3 4 5 6 7 9 10 14", "mean fluorescence intensity [a.u.]": 46.7}
{"Modification": "2'F-ANA at 5 6 8 11", "mean fluorescence intensity [a.u.]": 68.8}
{"Modification": "2'F-ANA at 2 3 4 5 7", "mean fluorescence intensity [a.u.]": 151}
{"Modification": "2'F-ANA at 1 6 8 11 14", "mean fluorescence intensity [a.u.]": 54.3}
{"Modification": "2'F-ANA at 1 6 12 13 15", "mean fluorescence intensity [a.u.]": 325}
{"Modification": "2'F-ANA at 2 3 4 5 6 9 11 12 13 14", "mean fluorescence intensity [a.u.]": 48.9}
{"Modification": "2'F-ANA at 5 6 7 11", "mean fluorescence intensity [a.u.]": 62.6}
{"Modification": "2'F-ANA at 2 3 4 7 9 10 13 14", "mean fluorescence intensity [a.u.]": 191}
{"Modification": "2'F-ANA at 2 6 8 10 13 14 15", "mean fluorescence intensity [a.u.]": 75.2}
{"Modification": "2'F-ANA at 5 7 9 10 12 14 15", "mean fluorescence intensity [a.u.]": 47}
{"Modification": "2'F-ANA at 7 12 15", "mean fluorescence intensity [a.u.]": 929}
{"Modification": "2'F-ANA at 1 4 6 7 11 13 15", "mean fluorescence intensity [a.u.]": 72.5}
{"Modification": "2'F-ANA at 1 2 7 11 12 14 15", "mean fluorescence intensity [a.u.]": 96.2}
{"Modification": "2'F-ANA at 1 3 5 7 9 11 13 14 15", "mean fluorescence intensity [a.u.]": 44.3}
{"data": "Block 4", "target": "Ras GTPase-activating protein-binding protein 1, full length (G3BP1, Homo sapiens, UniProt Q13283)", "method": "RNA Bind-n-Seq", "molecule type": "RNA", "sample": "in vitro", "concentration": "200 nM", "setting": "whole 134-nt RNA, ends assumed", "with": "150 mM LiCl", "baseline": "input library", "reading": "higher = stronger binding", "each molecule": "7-deaza-guanosine replaces G", "sequence of UniProt Q13283 (whole entry, looked up)": "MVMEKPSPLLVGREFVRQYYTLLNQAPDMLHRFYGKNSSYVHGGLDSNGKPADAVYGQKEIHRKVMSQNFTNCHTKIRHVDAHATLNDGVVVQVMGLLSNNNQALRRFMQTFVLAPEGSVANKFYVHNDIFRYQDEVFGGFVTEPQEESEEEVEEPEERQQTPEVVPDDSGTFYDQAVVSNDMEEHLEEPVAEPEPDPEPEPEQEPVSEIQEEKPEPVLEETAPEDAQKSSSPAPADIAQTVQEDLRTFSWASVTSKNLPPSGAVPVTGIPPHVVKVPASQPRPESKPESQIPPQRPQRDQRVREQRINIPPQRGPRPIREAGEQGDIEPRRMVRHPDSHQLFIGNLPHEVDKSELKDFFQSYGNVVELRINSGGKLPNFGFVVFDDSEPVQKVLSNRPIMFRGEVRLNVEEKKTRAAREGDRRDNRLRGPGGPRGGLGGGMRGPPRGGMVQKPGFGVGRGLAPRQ"}
{"Sequence": "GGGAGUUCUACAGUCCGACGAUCAAGUCCUGUGCUACACAUCGUAUGUACCGAAUCGGGUUUGGGGUUUGGGGUUUGGGAAAGUAUUAUGUUACGCCGUUCGGAUCUGCACUUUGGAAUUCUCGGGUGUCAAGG", "log2 enrichment": -0.96}
{"Sequence": "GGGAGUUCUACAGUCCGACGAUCUCCUGUGCUACACAUCGUAUGUACCGAAUCAAAUUUAAACCCCCCCAAAUUUUUUUAAAAAAGUAUUAUGUUACGCCGUUCGGAUCUGCAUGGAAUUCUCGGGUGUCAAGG", "log2 enrichment": 1.6}
{"Sequence": "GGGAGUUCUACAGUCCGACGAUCUCCUCAAGUCCUGUGCUACACAUCGUAUGUACCGAAUCGGUGGGUGGUGGGGAAAGUAUUAUGUUACGCCGUUCGGAUCUGCACUUCCAGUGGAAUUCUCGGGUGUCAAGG", "log2 enrichment": 0.883}
{"Sequence": "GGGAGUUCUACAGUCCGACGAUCUGGCCCUGGUGGCAUGCGGGGAGGAAGAGGUGGCCUCAUGGAUCGUGGUGGUCCCGUUGGAAUGUUCAGAGGUGGCCGUGGUGGAGACAGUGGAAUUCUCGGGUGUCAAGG", "log2 enrichment": 0.479}
{"Sequence": "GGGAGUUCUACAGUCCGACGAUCUGGGAGGUGGAUUUUGCUUAUUUUUUUAGCUCAUUUCCAGGGGUGGGAAUUUUUUUUUAAUAUGUGUCAUGAAUAAAGUUGUUUUUGAAAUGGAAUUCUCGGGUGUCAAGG", "log2 enrichment": -0.397}
{"Sequence": "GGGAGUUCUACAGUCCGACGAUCUGGGAGGUGGACUUUGUUUAUUUUUUUAGCUCAUUUCCAGGGGUGGGAAUUUUUUUUUAAUAUGUGUCAUGAAUAAAGUUGUUUUUGAAAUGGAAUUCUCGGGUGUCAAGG", "log2 enrichment": -0.461}
{"Sequence": "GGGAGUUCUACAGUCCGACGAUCGUCCUGUGCUACACAUCGUAUGUACCGAAUCGGAAAAAGGGAAAAAGGGAAAAAGGGGAAAGUAUUAUGUUACGCCGUUCGGAUCUGCACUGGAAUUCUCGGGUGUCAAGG", "log2 enrichment": -0.0863}
{"Sequence": "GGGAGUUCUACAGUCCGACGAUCUCAAGUCCUGUGCUACACAUCGUAUGUACCGAAUCGGGCCGGGGCCGGGGCCGGGAAAGUAUUAUGUUACGCCGUUCGGAUCUGCACUUCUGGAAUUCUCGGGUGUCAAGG", "log2 enrichment": 0.068}
{"note": "For quick reference, copied from above (block 1):"}
{"Sequence": "CTTATCTC", "E-score": -0.0107}
{"Sequence": "CCTGCTCA", "E-score": 0.115}
{"Sequence": "AGATAAGC", "E-score": -0.104}
{"Sequence": "ACAGGGTG", "E-score": -0.104}
{"Sequence": "CGCTCGTA", "E-score": -0.0883}
{"Sequence": "ACACAGGC", "E-score": -0.0108}
{"Sequence": "CCAGGCGG", "E-score": 0.286}
